Published values of several laboratories.
Protocols differ between the studies behind these lines. ± gives the spread as reported.

Cc1c(C)c2c(c(C)c1OCc1ccccc1)CCC(C)(C(=O)NN=C1C(=O)Nc3ccccc31)O2 (centres unmarked)
minimal effective dose (seizure protection; male CF-1 mice; intraperitoneal, 0.5 h, together with: pentylenetetrazole 60 mg/kg subcutaneous): 30 mg/kg

COc1ccnc(C[S+]([O-])c2nc3ccc(OC(F)F)cc3[nH]2)c1OC (centres unmarked)
intragastric pH (human ultra-rapid metabolizer; 40 mg/day, day 6, 5 days dosing): 1.2

Cc1cccc(N(O)N=Nc2ccc(S(=O)(=O)Nc3cc(C)on3)cc2)c1
inhibition (paw oedema; rat, carrageenan oedema; oral, 100 mg/kg, 4 h after carrageenan; reference: vehicle): 71.4%

COc1c(C)c(C)c2c(c1C)CCC(C)(C(=O)NN=C1C(=O)Nc3ccccc31)O2 (centres unmarked)
minimal effective dose (seizure protection; male CF-1 mice; intraperitoneal, 0.5 h, together with: maximal electroshock): 300 mg/kg

CCCN(O)N=Nc1ccc(S(=O)(=O)Nc2onc(C)c2C)cc1
inhibition (paw oedema; rat, carrageenan oedema; oral, 100 mg/kg, 2 h after carrageenan; reference: vehicle): 24%

COc1c(C)c(C)c2c(c1C)CCC(C)(C(=O)NN=C1C(=O)Nc3ccc(F)cc31)O2 (centres unmarked)
minimal effective dose (seizure protection; male CF-1 mice; intraperitoneal, 0.5 h, together with: pentylenetetrazole 60 mg/kg subcutaneous): 100 mg/kg

O=C1CCc2c(Oc3ccc4c(c3)[C@@H]3[C@H](O4)[C@H]3c3nc4ccc(C(F)(F)F)cc4[nH]3)ccnc2N1
confirmed partial response (RECIST; patients with B-RAF-mutated solid tumours; dose not given): 15.1%

Cc1c(C)c2c(c(C)c1O)CCC(C)(C(=O)NN=C1C(=O)N(C)c3ccccc31)O2 (centres unmarked)
minimal effective dose (seizure protection; male CF-1 mice; intraperitoneal, 0.5 h, together with: pentylenetetrazole 60 mg/kg subcutaneous): 100 mg/kg

SIYNFEKL
IL-2+ TNF-α+ cells (flow cytometry, item: CD44hi CD8+ T cells; peptide, OT-I CD8+ T cells, mouse; dose not given, primed 5 days, TGF-β1 from day 2 onward, together with: 20 ng/mL TGF-β1): 4.47%

Cc1c(C)c2c(c(C)c1OCc1ccccc1)CCC(C)(C(=O)NN=C1C(=O)Nc3ccc(Br)cc31)O2 (centres unmarked)
minimal effective dose (seizure protection; male CF-1 mice; intraperitoneal, 0.5 h, together with: maximal electroshock): > 300 mg/kg

CCCCCCCCCCCCCCCC(=O)OCC(=O)[C@@]12O[C@H](CCC)O[C@@H]1C[C@H]1[C@@H]3C[C@H](F)C4=CC(=O)CC[C@]4(C)[C@@]3(F)[C@@H](O)C[C@@]12C
AUC(2-58 h) fold change (item: human FGF21 protein; CD-1 mouse, plasma; subcutaneous, 0.3 mg/kg mRNA, MC3 LNP with hFGF21 mRNA, steroid/mRNA 2:3; reference: LNP without steroid): 2.6 fold

Cc1c(C)c2c(c(C)c1OCc1ccccc1)CCC(C)(C(=O)NN=C1C(=O)Nc3ccc(F)cc31)O2 (centres unmarked)
minimal effective dose (seizure protection; male CF-1 mice; intraperitoneal, 4 h, together with: pentylenetetrazole 60 mg/kg subcutaneous): 300 mg/kg

NNC1=NC(=O)C(=C2c3ccccc3-c3nc4cc(F)ccc4nc32)S1
blood glucose (mice with STZ-induced diabetes; oral, 25 mg/kg, 144 h, day 6): 382 ± 23.3 mg/dL

Cc1cc(C(=O)/C(=C\c2ccc(C)c(Cl)c2)c2ccc(C)c(Cl)c2)c(C(=O)N2CCCCC2)c(=O)[nH]1
IC50 (cell proliferation, MTT; 35404 melanoma brain metastasis, human patient-derived; 72 h, tested up to 10 µM): 0.4 to 4.3 µM

[2H]C([2H])(NC(=O)c1cc(C(=O)NCc2ccc(F)c(C)c2)ncn1)c1ccc(C(=O)O)cc1
proteoglycan loss reduction (histology; rat, MIA-induced osteoarthritis, knee MTP, LTP and LFC; intra-articular, 1 mg on 5, 12, 19 days after MIA, day 26; reference: vehicle): 15 to 19%

C[C@H](CS)C(=O)N1CCC[C@H]1C(=O)O
Aβ degradation (inhibitor; mouse microglia conditioned medium; concentration not given, together with: Aβ1-42 1 µg/mL; reference: vehicle): no effect

CC(=O)c1sc(NN=C2c3ccccc3-c3nc4cc(F)ccc4nc32)nc1C
blood glucose (mice with STZ-induced diabetes; oral, 25 mg/kg, 216 h, day 9): 202 ± 3.6 mg/dL

CC(C)[C@H](NC(=O)C(C)(F)F)[C@H](Oc1ccc2c(cnn2-c2ccc(=O)n(C)c2)c1)c1ccccc1
IC50 (TNF-alpha release; human, whole blood ex vivo; total concentration, PK/PD model, together with: lipopolysaccharide): 0.765 µM

Cc1ccc(C(=O)NC2CC2)cc1-n1ncc(C(=O)c2cccc(C#N)c2)c1N
IC50 (LPS-induced TNFα secretion, inhibitor; healthy human, peripheral blood ex vivo; total plasma concentration): 0.115 µM

Cc1c(C)c2c(c(C)c1O)CCC(C)(C(=O)NN=C1C(=O)Nc3ccc(F)cc31)O2 (centres unmarked)
minimal effective dose (seizure protection; male CF-1 mice; intraperitoneal, 4 h, together with: pentylenetetrazole 60 mg/kg subcutaneous): 300 mg/kg

CC(C)C[C@H](NC(=O)[C@H](CO)NC(=O)[C@H](CCCNC(=N)N)NC(=O)[C@H](CC(=O)O)NC(=O)[C@H](CCC(=O)O)NC(=O)[C@H](C)NC(=O)[C@@H]1CCCN1C(=O)[C@H](C)NC(=O)[C@H](CCC(=O)O)NC(=O)[C@@H]1CCCN1C(=O)[C@@H]1CCCN1)C(N)=O
HVA level (HPLC-EC; F344 rat, normal, substantia nigra; intranasal, 1000 µg, 5 days/week for 3 weeks): 51 ± 4 ng/g

TLQPPASSRRRHFHAALPPAR
contractile activity (peptide, rat stomach fundus strips; 3 µM; reference: TLQP-21): 84 ± 10%

Cc1cccc(N(O)N=Nc2ccc(S(=O)(=O)Nc3onc(C)c3C)cc2)c1
inhibition (paw oedema; rat, carrageenan oedema; oral, 100 mg/kg, 2 h after carrageenan; reference: vehicle): 29.4%

Excerpt of the above:
SIYNFEKL
IL-2+ TNF-α+ cells (flow cytometry, item: CD44hi CD8+ T cells; peptide, OT-I CD8+ T cells, mouse; dose not given, primed 5 days, TGF-β1 from day 2 onward, together with: 20 ng/mL TGF-β1): 4.47%
